Assay results collected from several papers.
Protocols differ between the studies behind these lines.
B1: Ric8b 1-483 N123A (Mus musculus, UniProt Q80XE1); chain MDEERALYIVRAGEAGAIERVLRDYSDKHRATFKFESADEDKRKKLCEGIFKVLVKEVPTTCQVSCLEVLRILSRDKKILVPVTTKENMQILLRLAKLHESDDSLEKVSEFPVIVESLKCLCAIVFNSQMAQQLSLELNLAAKLCNLLRKCKDRKFINDIKCFDLRLLFVLSLLHTDIRSQLRYELQGLPLLTQILESAFSIKWTDEYESAIDHNGPPLSPQETDCAIEALKALFNVTVDSWKVHKESDSHQFRVMAAVLRHCLLIVGPTEDKTEELHSNAVNLLSNVPVSCLDVLICPLTHEETAQEAATLDELPSDKTTEKDTALKNSTMVYNGMNMEAIHVLLNFMEKRIDKGSSYREGLTPVLSLLTECSRAHRNIRKFLKDQVLPPLRDVTNRPEVGSTVRNKLVRLMTHVDLGVKQIAAEFLFVLCKERVDSLLKYTGYGNAAGLLAARGLLAGGRGDNWYSEDEDTDTEEYKNAKP
B2: XCL1 mature protein V21C/V59C/E4A (UniProt P47992); chain VGSAVSDKRTCVSLTTQRLPCSRIKTYTITEGSLRAVIFITKRGLKVCADPQATWVRDCVRSMDRKSNTRNNMIQTKPTGTQQSTNTAVTLTG
B3: mutL R531E (Escherichia coli, UniProt P23367); chain MPIQVLPPQLANQIAAGEVVERPASVVKELVENSLDAGATRIDIDIERGGAKLIRIRDNGCGIKKDELALALARHATSKIASLDDLEAIISLGFRGEALASISSVSRLTLTSRTAEQQEAWQAYAEGRDMNVTVKPAAHPVGTTLEVLDLFYNTPARRKFLRTEKTEFNHIDEIIRRIALARFDVTINLSHNGKIVRQYRAVPEGGQKERRLGAICGTAFLEQALAIEWQHGDLTLRGWVADPNHTTPALAEIQYCYVNGRMMRDRLINHAIRQACEDKLGADQQPAFVLYLEIDPHQVDVNVHPAKHEVRFHQSRLVHDFIYQGVLSVLQQQLETPLPLDDEPQPAPRSIPENRVAAGRNHFAEPAAREPVAPRYTPAPASGSRPAAPWPNAQPGYQKQQGEVYRQLLQTPAPMQKLKAPEPQEPALAANSQSFGRVLTIVHSDCALLERDGNISLLSLPVAERWLRQAQLTPGEAPVCAQPLLIPLRLKVSAEEKSALEKAQSALAELGIDFQSDAQHVTIRAVPLPLEQQNLQILIPELIGYLAKQSVFEPGNIAQWIARNLMSEHAQWSMAQAITLLADVERLCPQLVKTPPGGLLQSVDLHPAIKALKDE
B4: UGT1A9 (Homo sapiens, UniProt O60656); chain GKLLVVPMDGSHWFTMRSVVEKLILRGHEVVVVMPEVSWQLGRSLNCTVKTYSTSYTLEDLDREFKAFAHAQWKAQVRSIYSLLMGSYNDIFDLFFSNCRSLFKDKKLVEYLKESSFDAVFLDPFDNCGLIVAKYFSLPSVVFARGILCHYLEEGAQCPAPLSYVPRILLGFSDAMTFKERVRNHIMHLEEHLLCHRFFKNALEIASEILQTPVTEYDLYSHTSIWLLRTDFVLDYPKPVMPNMIFIGGINCHQGKPLPMEFEAYINASGEHGIVVFSLGSMVSEIPEKKAMAIADALGKIPQTVLWRYTGTRPSNLANNTILVKWLPQNDLLGHPMTRAFITHAGSHGVYESICNGVPMVMMPLFGDQMDNAKRMETKGAGVTLNVLEMTSEDLENALKAVINDKSYKENIMRLSSLHKDRPVEPLDLAVFWVEFVMRHKGAPHLRPAAHDLTWYQYHSLDVIGFLLAVVLTVAFITFKCCAYGYRKCLGKKGRVKKAHKSKTH
B5: EnvC 278-419 V353A (Escherichia coli, UniProt P37690); chain STESEKSLMSRTGGLGAPRGQAFWPVRGPTLHRYGEQLQGELRWKGMVIGASEGTEVKAIADGRVILADWLQGYGLAVVVEHGKGDMSLYGYNQSALVSVGSQVRAGQPIALVGSSGGQGRPSLYFEIRRQGQAVNPQPWLGR
Chain of UniProt P09038 (whole entry, looked up): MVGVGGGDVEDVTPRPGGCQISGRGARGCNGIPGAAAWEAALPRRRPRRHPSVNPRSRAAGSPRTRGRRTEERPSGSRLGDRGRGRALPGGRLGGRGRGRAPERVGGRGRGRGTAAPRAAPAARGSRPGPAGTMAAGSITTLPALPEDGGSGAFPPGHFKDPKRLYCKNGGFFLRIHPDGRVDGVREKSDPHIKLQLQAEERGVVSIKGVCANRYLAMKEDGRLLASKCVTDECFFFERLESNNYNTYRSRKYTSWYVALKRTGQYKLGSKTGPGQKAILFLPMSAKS
Chain of UniProt P06722 (whole entry, looked up): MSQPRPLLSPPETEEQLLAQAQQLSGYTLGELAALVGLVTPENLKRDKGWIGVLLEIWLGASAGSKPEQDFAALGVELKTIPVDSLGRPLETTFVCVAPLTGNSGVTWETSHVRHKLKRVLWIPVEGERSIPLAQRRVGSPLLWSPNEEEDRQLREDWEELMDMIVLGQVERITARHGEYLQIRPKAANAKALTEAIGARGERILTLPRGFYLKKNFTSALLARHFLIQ
Chain of UniProt Q12888 (whole entry, unmodified, looked up): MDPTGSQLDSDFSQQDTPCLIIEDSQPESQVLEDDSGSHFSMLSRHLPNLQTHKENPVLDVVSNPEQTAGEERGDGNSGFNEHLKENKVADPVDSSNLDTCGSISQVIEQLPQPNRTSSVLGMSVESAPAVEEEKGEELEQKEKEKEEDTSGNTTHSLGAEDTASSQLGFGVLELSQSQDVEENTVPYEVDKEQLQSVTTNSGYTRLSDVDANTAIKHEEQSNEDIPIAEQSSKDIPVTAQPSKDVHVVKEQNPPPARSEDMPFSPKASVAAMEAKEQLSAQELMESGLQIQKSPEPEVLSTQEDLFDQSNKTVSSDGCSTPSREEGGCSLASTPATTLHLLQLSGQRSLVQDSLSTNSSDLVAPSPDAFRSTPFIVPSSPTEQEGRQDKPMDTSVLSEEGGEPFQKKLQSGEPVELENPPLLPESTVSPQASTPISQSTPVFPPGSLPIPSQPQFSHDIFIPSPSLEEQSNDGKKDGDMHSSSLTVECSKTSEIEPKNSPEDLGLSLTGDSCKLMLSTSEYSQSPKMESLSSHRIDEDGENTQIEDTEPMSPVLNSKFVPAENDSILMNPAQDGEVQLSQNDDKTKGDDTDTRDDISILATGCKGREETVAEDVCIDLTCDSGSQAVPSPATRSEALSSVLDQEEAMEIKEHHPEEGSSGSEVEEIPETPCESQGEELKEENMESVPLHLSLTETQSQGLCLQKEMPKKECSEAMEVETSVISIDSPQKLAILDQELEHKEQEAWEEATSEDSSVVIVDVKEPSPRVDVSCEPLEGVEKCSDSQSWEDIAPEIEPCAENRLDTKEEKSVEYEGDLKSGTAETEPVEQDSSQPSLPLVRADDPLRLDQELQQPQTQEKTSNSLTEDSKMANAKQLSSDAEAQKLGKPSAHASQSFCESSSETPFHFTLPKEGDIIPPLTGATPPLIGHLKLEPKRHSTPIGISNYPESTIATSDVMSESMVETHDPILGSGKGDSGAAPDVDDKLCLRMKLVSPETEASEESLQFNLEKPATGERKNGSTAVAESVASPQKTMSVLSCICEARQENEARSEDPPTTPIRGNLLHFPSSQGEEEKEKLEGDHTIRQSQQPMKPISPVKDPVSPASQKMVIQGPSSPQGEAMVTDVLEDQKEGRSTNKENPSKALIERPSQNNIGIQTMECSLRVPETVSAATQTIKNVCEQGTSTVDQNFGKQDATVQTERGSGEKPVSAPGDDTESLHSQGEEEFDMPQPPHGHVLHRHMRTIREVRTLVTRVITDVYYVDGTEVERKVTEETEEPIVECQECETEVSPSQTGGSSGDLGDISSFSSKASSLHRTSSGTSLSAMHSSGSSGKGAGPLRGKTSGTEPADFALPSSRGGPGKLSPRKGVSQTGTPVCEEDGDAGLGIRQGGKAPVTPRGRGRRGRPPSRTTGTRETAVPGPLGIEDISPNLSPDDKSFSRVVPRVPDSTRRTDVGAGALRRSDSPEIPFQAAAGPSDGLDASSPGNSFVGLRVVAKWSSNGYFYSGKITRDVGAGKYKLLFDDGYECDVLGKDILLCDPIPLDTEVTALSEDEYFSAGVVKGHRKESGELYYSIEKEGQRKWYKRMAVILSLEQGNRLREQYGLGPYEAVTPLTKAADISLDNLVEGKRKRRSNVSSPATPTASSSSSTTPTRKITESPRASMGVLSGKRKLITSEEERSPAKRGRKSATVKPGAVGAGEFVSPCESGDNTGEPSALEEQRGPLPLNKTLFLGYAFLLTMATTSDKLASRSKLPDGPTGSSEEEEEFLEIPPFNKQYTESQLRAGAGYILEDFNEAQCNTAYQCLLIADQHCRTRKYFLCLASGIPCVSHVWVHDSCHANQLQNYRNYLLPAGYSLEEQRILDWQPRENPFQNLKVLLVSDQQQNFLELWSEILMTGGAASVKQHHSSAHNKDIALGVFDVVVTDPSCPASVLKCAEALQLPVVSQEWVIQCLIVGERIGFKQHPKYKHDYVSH
Chain of UniProt Q99731 (whole entry, looked up): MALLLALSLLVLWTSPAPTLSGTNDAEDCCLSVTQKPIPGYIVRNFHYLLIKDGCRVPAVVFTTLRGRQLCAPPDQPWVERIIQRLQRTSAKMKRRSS
Chain of UniProt Q6PR54 (whole entry, looked up): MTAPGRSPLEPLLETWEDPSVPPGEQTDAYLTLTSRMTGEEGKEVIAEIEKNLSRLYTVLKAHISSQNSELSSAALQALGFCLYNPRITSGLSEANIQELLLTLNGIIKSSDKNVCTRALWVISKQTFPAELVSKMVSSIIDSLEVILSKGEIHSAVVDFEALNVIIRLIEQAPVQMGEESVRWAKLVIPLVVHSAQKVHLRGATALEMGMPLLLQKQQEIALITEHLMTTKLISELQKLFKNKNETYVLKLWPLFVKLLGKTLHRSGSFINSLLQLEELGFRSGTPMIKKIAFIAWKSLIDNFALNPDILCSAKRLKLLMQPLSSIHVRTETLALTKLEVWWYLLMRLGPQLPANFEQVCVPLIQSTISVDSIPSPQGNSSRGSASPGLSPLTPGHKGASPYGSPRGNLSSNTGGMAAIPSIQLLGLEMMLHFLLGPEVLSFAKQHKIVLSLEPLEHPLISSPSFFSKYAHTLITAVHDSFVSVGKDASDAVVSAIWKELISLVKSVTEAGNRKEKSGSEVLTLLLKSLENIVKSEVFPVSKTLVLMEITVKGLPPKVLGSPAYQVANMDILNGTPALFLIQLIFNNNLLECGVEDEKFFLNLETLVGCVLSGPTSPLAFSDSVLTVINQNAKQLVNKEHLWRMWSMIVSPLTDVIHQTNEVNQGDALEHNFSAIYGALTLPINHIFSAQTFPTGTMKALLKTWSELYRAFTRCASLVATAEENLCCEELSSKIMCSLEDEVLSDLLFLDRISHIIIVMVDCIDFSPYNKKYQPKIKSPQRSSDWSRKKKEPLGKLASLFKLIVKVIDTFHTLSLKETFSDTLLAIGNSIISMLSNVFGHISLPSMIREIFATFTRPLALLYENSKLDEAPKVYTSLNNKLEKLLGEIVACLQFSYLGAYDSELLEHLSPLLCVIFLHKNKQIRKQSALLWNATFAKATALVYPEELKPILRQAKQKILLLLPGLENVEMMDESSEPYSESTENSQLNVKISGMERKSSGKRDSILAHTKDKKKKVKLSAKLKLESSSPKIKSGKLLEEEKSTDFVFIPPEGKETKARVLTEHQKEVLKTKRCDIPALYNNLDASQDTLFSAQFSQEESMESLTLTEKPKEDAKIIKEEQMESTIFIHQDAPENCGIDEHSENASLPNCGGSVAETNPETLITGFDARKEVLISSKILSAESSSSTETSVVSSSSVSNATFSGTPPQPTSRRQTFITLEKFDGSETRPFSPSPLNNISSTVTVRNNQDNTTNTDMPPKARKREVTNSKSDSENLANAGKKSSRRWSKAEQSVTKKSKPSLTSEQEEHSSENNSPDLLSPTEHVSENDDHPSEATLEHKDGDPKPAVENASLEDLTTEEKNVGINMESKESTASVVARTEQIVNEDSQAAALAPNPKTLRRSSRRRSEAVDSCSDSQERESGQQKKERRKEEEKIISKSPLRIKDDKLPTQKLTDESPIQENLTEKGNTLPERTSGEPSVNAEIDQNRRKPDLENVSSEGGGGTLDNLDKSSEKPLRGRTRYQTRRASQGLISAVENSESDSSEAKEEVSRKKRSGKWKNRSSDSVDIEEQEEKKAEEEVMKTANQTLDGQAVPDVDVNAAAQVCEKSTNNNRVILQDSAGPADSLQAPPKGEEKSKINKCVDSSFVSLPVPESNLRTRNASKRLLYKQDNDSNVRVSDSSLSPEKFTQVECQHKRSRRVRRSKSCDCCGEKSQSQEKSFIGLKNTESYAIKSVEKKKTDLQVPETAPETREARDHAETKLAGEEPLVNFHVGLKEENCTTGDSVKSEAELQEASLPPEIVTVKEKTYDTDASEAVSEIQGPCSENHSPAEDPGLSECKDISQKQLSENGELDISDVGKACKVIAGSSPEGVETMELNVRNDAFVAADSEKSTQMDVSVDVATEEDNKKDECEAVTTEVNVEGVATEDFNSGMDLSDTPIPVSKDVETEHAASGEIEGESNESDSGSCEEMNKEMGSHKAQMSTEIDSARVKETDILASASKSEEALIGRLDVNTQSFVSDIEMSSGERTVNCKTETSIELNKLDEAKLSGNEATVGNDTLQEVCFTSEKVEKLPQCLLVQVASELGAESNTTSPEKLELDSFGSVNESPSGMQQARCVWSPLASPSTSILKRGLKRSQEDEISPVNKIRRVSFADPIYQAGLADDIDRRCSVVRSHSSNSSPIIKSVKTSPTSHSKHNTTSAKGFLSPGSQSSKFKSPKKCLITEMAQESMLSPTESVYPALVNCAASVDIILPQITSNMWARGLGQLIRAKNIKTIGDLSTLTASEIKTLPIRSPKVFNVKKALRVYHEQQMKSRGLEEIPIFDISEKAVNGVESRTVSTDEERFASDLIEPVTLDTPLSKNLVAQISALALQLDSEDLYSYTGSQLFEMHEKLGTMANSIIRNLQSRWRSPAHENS

| Molecule | target or system | assay | test system | setting | how to read | endpoint | result |
| --- | --- | --- | --- | --- | --- | --- | --- |
| B1 (Ric8b 1-483 N123A) | GNAL 1-381 (Homo sapiens, UniProt P38405) | luminescence | RIC-8B knockout HEK293T | – | reference: wild-type Ric-8B, higher = more folding | sensor folding | 8% |
| CCL19 (UniProt Q99731) | ACKR4 (Homo sapiens, UniProt Q9NPB9) | β-arrestin2 recruitment, agonist, EFC | CHO-CCX-CKR | added: CXCL13 1000 nM | – | pEC50 | 9.4 |
| Rif1 (Mus musculus, UniProt Q6PR54) | TP53BP1 (Homo sapiens, UniProt Q12888) | co-IP | B cells | – | reference: unirradiated cells, higher = more Rif1 bound | co-precipitated Rif1 | > 3 fold |
| Bcar1, phosphotyrosine (Rattus norvegicus, UniProt Q63767) | Ptk2, serine dephosphorylated (Rattus norvegicus, UniProt O35346) | pull-down | – | 30 min, 4 °C | reference: untreated mitotic FAK, higher = more CAS bound | relative binding | > 3 fold |
| B2 | XCR1 (Homo sapiens, UniProt P46094) | calcium flux | HEK293 | – | reference: XCL1 CC3, higher = less potent | potency decrease | 93 fold |
| TIMP2 N-terminal domain S4E/N38Q/V71N/H97R/T99S | MMP10 99-263 (Homo sapiens, UniProt P09238) | fluorogenic substrate cleavage, inhibitor, enzyme inhibition assay | – | apparent | – | Ki | 78.9 nM |
| B3 (mutL R531E) | mutH 1-229 (Escherichia coli, UniProt P06722) | MutH cleavage of heteroduplex DNA | – | – | reference: MutL wild type, higher = more activity | MutL activity | 115% |
| B4 (UGT1A9) | COc1ccc(O)cc1 | steady-state kinetics | – | pH 7.4, 37 °C | – | Km | 154 µM |
| YAGRRKERPTSLNVFP (MAPK8IP3 D-site peptide (Homo sapiens)) | MAPK8, pT183, pY185 (Homo sapiens, UniProt P45983) | kinase activity, inhibitor, competitive kinase inhibition assay | peptide | added: ATP 1 mM | – | IC50 | 360 nM |
| B5 (EnvC 278-419 V353A) | AmiB (Escherichia coli) | dye release from labelled sacculi, activator | – | 1 µM | reference: wild-type, higher = more activation | AmiB activation | 10% |
| ARVKQTARKS (Histone H3.1 2-11 T3V (Homo sapiens, UniProt P68431); sequence looked up) | KDM5A 287-347 (Homo sapiens, UniProt P29375) | competition with labeled peptide, fluorescence polarisation | peptide | added: H3 peptide | – | Ki | 7170 nM |
| FGF2 (Homo sapiens, UniProt P09038) | FGFR3 isoform IIIc (unknown, UniProt Q61851) | cell proliferation, MTT | BaF3-FGFR3c | 0 to 320 nM, added: chondroitin sulfate E 4.9 µg/mL | – | half-maximal concentration | 10.1 nM |

Repeated from above:
| Molecule | target or system | assay | test system | setting | how to read | endpoint | result |
| --- | --- | --- | --- | --- | --- | --- | --- |
| Bcar1, phosphotyrosine (Rattus norvegicus, UniProt Q63767) | Ptk2, serine dephosphorylated (Rattus norvegicus, UniProt O35346) | pull-down | – | 30 min, 4 °C | reference: untreated mitotic FAK, higher = more CAS bound | relative binding | > 3 fold |
